{"data": "Measured values gathered from unrelated publications", "note": "Every numbered part comes from another study and shows a few of its results, in no order.", "sequence of UniProt P57059 (whole entry, looked up)": "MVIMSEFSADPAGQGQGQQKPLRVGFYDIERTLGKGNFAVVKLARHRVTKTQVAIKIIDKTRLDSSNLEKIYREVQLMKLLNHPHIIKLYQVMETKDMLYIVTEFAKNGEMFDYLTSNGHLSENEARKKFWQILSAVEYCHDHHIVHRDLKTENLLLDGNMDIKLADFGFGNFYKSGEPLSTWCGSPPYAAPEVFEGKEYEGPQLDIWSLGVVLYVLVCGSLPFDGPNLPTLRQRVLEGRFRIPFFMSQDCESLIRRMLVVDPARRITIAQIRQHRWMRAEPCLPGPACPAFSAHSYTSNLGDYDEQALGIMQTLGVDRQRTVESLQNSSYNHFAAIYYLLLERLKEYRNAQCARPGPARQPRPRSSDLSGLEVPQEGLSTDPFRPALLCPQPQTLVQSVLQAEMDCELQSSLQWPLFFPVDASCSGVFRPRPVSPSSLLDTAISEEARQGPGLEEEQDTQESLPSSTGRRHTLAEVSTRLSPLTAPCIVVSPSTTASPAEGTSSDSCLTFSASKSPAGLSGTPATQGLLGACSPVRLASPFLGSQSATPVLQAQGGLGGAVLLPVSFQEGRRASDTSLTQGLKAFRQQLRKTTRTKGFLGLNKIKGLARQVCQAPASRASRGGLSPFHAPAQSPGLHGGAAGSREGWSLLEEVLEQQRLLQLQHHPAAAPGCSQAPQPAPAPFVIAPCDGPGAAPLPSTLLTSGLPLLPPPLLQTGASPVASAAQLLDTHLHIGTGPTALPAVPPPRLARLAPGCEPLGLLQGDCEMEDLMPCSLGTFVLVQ", "sequence of UniProt P19784 (whole entry, looked up)": "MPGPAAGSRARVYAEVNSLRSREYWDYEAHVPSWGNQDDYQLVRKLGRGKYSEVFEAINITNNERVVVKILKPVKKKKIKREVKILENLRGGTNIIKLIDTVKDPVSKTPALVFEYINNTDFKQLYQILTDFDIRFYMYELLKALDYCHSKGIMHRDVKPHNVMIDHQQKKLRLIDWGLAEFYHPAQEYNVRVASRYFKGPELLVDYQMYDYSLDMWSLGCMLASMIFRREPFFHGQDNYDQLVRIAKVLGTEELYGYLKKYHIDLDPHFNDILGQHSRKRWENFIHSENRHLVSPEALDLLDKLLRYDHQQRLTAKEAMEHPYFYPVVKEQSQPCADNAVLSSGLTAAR", "sequence of UniProt Q9BUB5 (whole entry, looked up)": "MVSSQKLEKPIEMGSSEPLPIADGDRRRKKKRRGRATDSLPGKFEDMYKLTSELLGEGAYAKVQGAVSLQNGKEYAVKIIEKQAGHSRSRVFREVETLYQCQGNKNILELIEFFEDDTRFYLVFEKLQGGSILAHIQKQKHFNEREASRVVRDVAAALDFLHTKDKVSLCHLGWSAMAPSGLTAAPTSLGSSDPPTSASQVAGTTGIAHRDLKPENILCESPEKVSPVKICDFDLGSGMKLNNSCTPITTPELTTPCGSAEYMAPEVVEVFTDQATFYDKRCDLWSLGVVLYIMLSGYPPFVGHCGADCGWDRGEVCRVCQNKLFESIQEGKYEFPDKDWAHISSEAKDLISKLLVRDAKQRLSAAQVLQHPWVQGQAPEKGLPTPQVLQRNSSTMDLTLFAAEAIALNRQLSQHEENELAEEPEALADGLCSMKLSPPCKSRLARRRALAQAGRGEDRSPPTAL", "sequence of UniProt Q15418 (whole entry, looked up)": "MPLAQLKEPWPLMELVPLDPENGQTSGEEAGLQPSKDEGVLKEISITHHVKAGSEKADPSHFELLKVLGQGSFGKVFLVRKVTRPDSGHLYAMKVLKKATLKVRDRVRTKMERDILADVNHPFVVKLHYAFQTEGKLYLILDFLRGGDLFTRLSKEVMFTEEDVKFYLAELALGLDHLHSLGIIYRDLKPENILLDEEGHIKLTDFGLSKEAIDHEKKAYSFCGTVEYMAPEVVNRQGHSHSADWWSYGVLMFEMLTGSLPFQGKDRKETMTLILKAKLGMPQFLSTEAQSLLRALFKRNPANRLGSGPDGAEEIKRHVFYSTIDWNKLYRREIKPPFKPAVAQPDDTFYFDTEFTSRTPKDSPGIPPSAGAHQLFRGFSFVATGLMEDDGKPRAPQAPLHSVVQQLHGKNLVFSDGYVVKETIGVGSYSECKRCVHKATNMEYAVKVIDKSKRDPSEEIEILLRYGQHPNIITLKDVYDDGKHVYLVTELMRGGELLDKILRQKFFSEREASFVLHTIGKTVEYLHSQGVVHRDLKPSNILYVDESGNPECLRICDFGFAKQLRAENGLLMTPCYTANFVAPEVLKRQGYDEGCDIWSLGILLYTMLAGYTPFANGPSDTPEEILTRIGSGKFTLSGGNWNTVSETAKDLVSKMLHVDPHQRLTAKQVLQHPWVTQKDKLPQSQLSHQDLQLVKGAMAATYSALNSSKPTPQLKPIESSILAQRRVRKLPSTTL", "sequence of UniProt Q13705 (whole entry, looked up)": "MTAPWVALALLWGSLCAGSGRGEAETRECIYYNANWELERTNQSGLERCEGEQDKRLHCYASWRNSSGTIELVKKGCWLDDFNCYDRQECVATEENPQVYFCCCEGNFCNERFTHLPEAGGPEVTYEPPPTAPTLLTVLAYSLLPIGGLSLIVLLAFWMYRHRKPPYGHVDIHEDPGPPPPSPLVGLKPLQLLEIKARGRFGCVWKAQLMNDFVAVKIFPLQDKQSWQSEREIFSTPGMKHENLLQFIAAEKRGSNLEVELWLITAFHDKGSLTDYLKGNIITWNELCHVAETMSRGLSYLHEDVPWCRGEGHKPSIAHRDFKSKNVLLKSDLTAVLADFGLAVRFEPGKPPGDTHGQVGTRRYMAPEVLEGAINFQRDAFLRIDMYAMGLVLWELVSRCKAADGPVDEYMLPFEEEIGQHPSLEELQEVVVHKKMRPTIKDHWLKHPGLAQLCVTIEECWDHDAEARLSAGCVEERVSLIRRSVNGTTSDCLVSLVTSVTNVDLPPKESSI", "sequence of UniProt Q15139 (whole entry, looked up)": "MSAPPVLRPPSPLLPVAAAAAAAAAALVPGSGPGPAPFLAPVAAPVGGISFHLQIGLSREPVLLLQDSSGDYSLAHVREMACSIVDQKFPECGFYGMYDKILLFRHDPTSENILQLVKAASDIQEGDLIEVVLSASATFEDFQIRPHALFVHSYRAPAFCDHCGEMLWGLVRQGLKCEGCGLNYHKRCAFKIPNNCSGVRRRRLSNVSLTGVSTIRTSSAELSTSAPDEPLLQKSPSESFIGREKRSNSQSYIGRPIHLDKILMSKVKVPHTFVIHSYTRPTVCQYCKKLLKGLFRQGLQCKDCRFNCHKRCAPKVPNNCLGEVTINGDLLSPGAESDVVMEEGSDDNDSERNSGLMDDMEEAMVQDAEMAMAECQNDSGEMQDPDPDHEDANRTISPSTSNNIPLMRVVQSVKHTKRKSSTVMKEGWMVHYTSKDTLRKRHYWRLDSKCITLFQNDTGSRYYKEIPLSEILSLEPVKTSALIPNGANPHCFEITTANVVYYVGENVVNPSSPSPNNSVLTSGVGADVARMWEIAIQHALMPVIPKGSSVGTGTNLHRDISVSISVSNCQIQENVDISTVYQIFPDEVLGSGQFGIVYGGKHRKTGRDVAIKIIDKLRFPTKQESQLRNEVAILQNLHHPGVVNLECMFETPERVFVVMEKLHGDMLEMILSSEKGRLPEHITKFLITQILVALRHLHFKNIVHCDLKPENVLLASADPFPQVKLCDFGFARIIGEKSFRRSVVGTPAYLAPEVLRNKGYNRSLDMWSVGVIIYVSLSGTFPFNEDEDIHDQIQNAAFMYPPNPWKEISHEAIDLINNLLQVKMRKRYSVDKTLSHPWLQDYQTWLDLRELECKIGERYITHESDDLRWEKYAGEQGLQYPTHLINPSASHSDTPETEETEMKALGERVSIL", "sequence of UniProt Q9NR20 (whole entry, looked up)": "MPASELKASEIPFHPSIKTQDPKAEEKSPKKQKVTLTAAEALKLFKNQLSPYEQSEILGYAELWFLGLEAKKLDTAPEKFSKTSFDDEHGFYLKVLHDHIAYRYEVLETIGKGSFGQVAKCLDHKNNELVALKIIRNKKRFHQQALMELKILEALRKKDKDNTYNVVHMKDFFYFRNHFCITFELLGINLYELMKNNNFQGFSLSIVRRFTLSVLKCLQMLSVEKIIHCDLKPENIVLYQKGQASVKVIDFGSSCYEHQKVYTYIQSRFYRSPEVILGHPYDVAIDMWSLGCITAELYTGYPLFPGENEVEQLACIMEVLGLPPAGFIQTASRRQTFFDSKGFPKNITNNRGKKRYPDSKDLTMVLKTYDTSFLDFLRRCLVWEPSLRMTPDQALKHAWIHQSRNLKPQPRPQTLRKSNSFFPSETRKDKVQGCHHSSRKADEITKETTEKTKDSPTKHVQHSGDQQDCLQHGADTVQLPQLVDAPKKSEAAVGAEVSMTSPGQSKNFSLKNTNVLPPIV", "sequence of UniProt Q14164 (whole entry, looked up)": "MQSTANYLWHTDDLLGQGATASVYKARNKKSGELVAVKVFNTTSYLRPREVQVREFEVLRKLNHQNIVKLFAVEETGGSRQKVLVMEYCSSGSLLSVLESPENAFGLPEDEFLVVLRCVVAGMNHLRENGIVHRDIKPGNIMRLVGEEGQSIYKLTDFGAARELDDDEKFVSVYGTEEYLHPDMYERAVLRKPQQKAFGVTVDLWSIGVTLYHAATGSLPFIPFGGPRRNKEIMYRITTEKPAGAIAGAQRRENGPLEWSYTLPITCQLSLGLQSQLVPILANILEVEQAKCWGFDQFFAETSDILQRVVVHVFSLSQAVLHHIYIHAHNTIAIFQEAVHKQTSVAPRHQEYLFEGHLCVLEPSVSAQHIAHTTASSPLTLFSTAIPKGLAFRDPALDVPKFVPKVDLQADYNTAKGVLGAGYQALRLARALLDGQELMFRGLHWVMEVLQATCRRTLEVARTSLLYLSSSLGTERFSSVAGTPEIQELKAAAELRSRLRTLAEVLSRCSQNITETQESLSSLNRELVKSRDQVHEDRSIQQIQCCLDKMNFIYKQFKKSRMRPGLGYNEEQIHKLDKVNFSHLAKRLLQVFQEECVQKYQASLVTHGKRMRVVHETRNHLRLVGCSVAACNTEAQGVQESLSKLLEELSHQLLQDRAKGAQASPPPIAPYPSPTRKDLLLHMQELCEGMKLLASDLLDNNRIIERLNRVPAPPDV"}
{"data": "Series 1", "species": "human", "sample": "microsomes or S9", "tested at": "2 µM", "time": "0.5 h"}
{"Structure (SMILES)": "Cc1nc(C)n(C(C)CNC(=O)CN2C(=O)COc3ccc(C(C)(C)C)cc32)n1 (stereo not drawn)", "remaining compound [%]": "> 100"}
{"Structure (SMILES)": "CC(O)CN(Cc1cc(F)cc(Br)c1)C(C)C (stereo not drawn)", "remaining compound [%]": 15.6}
{"Structure (SMILES)": "O=C(Nc1ccccc1C(F)(F)F)N1Cc2c(sc3c2CCCC3)-n2cccc2C1c1ccccc1 (stereo not drawn)", "remaining compound [%]": 14.6}
{"Structure (SMILES)": "c1ccc(-c2ccc(-c3cn4c5ccccc5nc4n3CCN3CCCCC3)cc2)cc1", "remaining compound [%]": 28.8}
{"Structure (SMILES)": "Cc1cc(C)c2c(=O)n(CC(=O)NCc3ccc4c(c3)OCO4)c(=O)n(-c3ccccc3)c2n1", "remaining compound [%]": 98.6}
{"Structure (SMILES)": "C/C(=C\\c1c[nH]c(-c2ccccc2)n1)c1cnccn1", "remaining compound [%]": 1.38}
{"Structure (SMILES)": "O=C(NCc1ccc(F)cc1)N1Cc2c(sc3c2CCCC3)-n2cccc2C1c1cccs1 (stereo not drawn)", "remaining compound [%]": 8.43}
{"Structure (SMILES)": "CC(C)(C)OC(=O)N1CCC(Nc2nccn3c(Br)cnc23)CC1", "remaining compound [%]": 95}
{"Structure (SMILES)": "COC(=O)c1csc(COc2ccc(F)c(F)c2)n1", "remaining compound [%]": 50.3}
{"Structure (SMILES)": "CC(CCCC(C)(C)O)Cc1[nH]cnc1-c1ccccc1 (stereo not drawn)", "remaining compound [%]": 90.1}
{"Structure (SMILES)": "CC(=O)Nc1cccc(NS(=O)(=O)c2c(C)nc(O)[nH]c2=O)c1", "remaining compound [%]": "> 100"}
{"Structure (SMILES)": "Fc1ccc(-c2ccnc3nc(-c4ccncc4)nn23)cc1", "remaining compound [%]": "> 99"}
{"Structure (SMILES)": "COc1ccc(OC)c(Nc2nc(CC(=O)NCCc3c[nH]c4ccccc34)cs2)c1", "remaining compound [%]": 1.26}
{"Structure (SMILES)": "CC1CN(C(=O)c2cnc3n(c2=O)CCS3)C(C)CO1 (stereo not drawn)", "remaining compound [%]": 87.3}
{"data": "Series 2", "SMILES": "Nc1ccc2ncnc(NCCc3ccc(Oc4ccccc4)cc3)c2c1", "read-out": "enzyme activity", "action": "inhibitor", "tested at": "0.5 µM", "reference": "control"}
{"target": "Calcium/calmodulin-dependent protein kinase type 1D (CAMK1D, Homo sapiens, UniProt Q8IU85)", "remaining activity [%]": 102}
{"target": "Cyclin-dependent kinase 7 (CDK7, Homo sapiens, UniProt P50613)", "remaining activity [%]": 99.3}
{"target": "Rho-associated protein kinase 2 (ROCK2, Homo sapiens, UniProt O75116)", "remaining activity [%]": 90.7}
{"target": "Homeodomain-interacting protein kinase 3 (HIPK3, Homo sapiens, UniProt Q9H422)", "remaining activity [%]": 98.6}
{"target": "Aurora kinase A (AURKA, Homo sapiens, UniProt O14965)", "remaining activity [%]": 105}
{"target": "G protein-coupled receptor kinase 5 (GRK5, Homo sapiens, UniProt P34947)", "remaining activity [%]": 98}
{"target": "Casein kinase II subunit alpha' (CSNK2A2, Homo sapiens, UniProt P19784)", "remaining activity [%]": 103}
{"target": "Serine/threonine-protein kinase BRSK1 (BRSK1, Homo sapiens, UniProt Q8TDC3)", "remaining activity [%]": 101}
{"target": "Mitogen-activated protein kinase kinase kinase 8 (MAP3K8, Homo sapiens, UniProt P41279)", "remaining activity [%]": 97.2}
{"target": "Dual specificity tyrosine-phosphorylation-regulated kinase 4 (DYRK4, Homo sapiens, UniProt Q9NR20)", "remaining activity [%]": 93.7}
{"target": "NT-3 growth factor receptor (NTRK3, Homo sapiens, UniProt Q16288)", "remaining activity [%]": 98.4}
{"target": "Protein-tyrosine kinase 2-beta (PTK2B, Homo sapiens, UniProt Q14289)", "remaining activity [%]": 95}
{"target": "Calcium/calmodulin-dependent protein kinase type 1G (CAMK1G, Homo sapiens, UniProt Q96NX5)", "remaining activity [%]": 102}
{"target": "Serine/threonine-protein kinase D1 (PRKD1, Homo sapiens, UniProt Q15139)", "remaining activity [%]": 99.3}
{"target": "STE20-like serine/threonine-protein kinase (SLK, Homo sapiens, UniProt Q9H2G2)", "remaining activity [%]": 102}
{"target": "Myotonin-protein kinase (DMPK, Homo sapiens, UniProt Q09013)", "remaining activity [%]": 94.2}
{"target": "Serine/threonine-protein kinase N2 (PKN2, Homo sapiens, UniProt Q16513)", "remaining activity [%]": 89.7}
{"target": "Mitogen-activated protein kinase kinase kinase 2 (MAP3K2, Homo sapiens, UniProt Q9Y2U5)", "remaining activity [%]": 98.4}
{"target": "Cyclin-dependent kinase 2, with cyclin A (CDK2, Homo sapiens, UniProt P24941)", "remaining activity [%]": 95.8}
{"target": "Mitogen-activated protein kinase 10 (MAPK10, Homo sapiens, UniProt P53779)", "remaining activity [%]": 104}
{"target": "Proto-oncogene tyrosine-protein kinase ROS (ROS1, Homo sapiens, UniProt P08922)", "remaining activity [%]": 97.8}
{"target": "Proto-oncogene tyrosine-protein kinase receptor Ret (RET, Homo sapiens, UniProt P07949)", "remaining activity [%]": 101}
{"target": "Serine/threonine-protein kinase Nek9 (NEK9, Homo sapiens, UniProt Q8TD19)", "remaining activity [%]": 95.8}
{"target": "Epidermal growth factor receptor (EGFR, Homo sapiens, UniProt P00533)", "remaining activity [%]": 112}
{"data": "Series 3", "Structure (SMILES)": "O=C(NS(=O)(=O)c1ccc(NCC2CCOCC2)c([N+](=O)[O-])c1)c1ccc(N2CCN(Cc3ccc(C(F)(F)F)cc3-c3ccc(Cl)cc3)CC2)cc1Oc1cnc2[nH]ccc2c1", "tested at": "1 µM"}
{"target": "Receptor-interacting serine/threonine-protein kinase 4 (RIPK4, Homo sapiens, UniProt P57078)", "read-out": "cell-free assay", "technique": "competition with immobilised ligand", "remaining binding [%]": 75}
{"target": "Wee1-like protein kinase 2 (WEE2, Homo sapiens, UniProt P0C1S8)", "read-out": "cell-free assay", "technique": "competition with immobilised ligand", "remaining binding [%]": 100}
{"target": "Phosphatidylinositol 3-kinase catalytic subunit type 3 (PIK3C3, Homo sapiens, UniProt Q8NEB9)", "read-out": "cell-free assay", "technique": "competition with immobilised ligand", "remaining binding [%]": 100}
{"target": "Receptor-type tyrosine-protein kinase FLT3 (FLT3, Homo sapiens, UniProt P36888, K663Q)", "read-out": "cell-free assay", "technique": "competition with immobilised ligand", "remaining binding [%]": 100}
{"target": "Cyclin-dependent kinase 2 (CDK2, Homo sapiens, UniProt P24941)", "read-out": "cell-free assay", "technique": "competition with immobilised ligand", "remaining binding [%]": 100}
{"target": "cGMP-dependent protein kinase 2 (PRKG2, Homo sapiens, UniProt Q13237)", "read-out": "cell-free assay", "technique": "competition with immobilised ligand", "remaining binding [%]": 100}
{"target": "Interferon-induced, double-stranded RNA-activated protein kinase (EIF2AK2, Homo sapiens, UniProt P19525)", "read-out": "cell-free assay", "technique": "competition with immobilised ligand", "remaining binding [%]": 94}
{"target": "Serine/threonine-protein kinase SIK1 (SIK1, Homo sapiens, UniProt P57059)", "technique": "competition binding", "remaining binding [%]": 90}
{"target": "Tyrosine-protein kinase Tec (TEC, Homo sapiens, UniProt P42680)", "read-out": "cell-free assay", "technique": "competition with immobilised ligand", "remaining binding [%]": 71}
{"target": "Death-associated protein kinase 3 (DAPK3, Homo sapiens, UniProt O43293)", "read-out": "cell-free assay", "technique": "competition with immobilised ligand", "remaining binding [%]": 91}
{"target": "Serine/threonine-protein kinase TNNI3K (TNNI3K, Homo sapiens, UniProt Q59H18)", "read-out": "cell-free assay", "technique": "competition with immobilised ligand", "remaining binding [%]": 95}
{"target": "MAP kinase-interacting serine/threonine-protein kinase 1 (MKNK1, Homo sapiens, UniProt Q9BUB5)", "read-out": "cell-free assay", "technique": "competition with immobilised ligand", "remaining binding [%]": 99}
{"target": "Dual serine/threonine and tyrosine protein kinase (DSTYK, Homo sapiens, UniProt Q6XUX3)", "read-out": "cell-free assay", "technique": "competition with immobilised ligand", "remaining binding [%]": 94}
{"target": "Activin receptor type-2A (ACVR2A, Homo sapiens, UniProt P27037)", "read-out": "cell-free assay", "technique": "competition with immobilised ligand", "remaining binding [%]": 93}
{"target": "Epidermal growth factor receptor (EGFR, Homo sapiens, UniProt P00533, A750P/del747-749)", "read-out": "cell-free assay", "technique": "competition with immobilised ligand", "remaining binding [%]": 86}
{"target": "Tyrosine-protein kinase Blk (BLK, Homo sapiens, UniProt P51451)", "read-out": "cell-free assay", "technique": "competition with immobilised ligand", "remaining binding [%]": 84}
{"target": "Receptor-type tyrosine-protein kinase FLT3 (FLT3, Homo sapiens, UniProt P36888, ITD)", "read-out": "cell-free assay", "technique": "competition with immobilised ligand", "remaining binding [%]": 100}
{"target": "Tyrosine-protein kinase ABL1, phosphorylated (ABL1, Homo sapiens, UniProt P00519, Y253F)", "read-out": "cell-free assay", "technique": "competition with immobilised ligand", "remaining binding [%]": 96}
{"target": "Insulin receptor-related protein (INSRR, Homo sapiens, UniProt P14616)", "read-out": "cell-free assay", "technique": "competition with immobilised ligand", "remaining binding [%]": 98}
{"target": "Receptor tyrosine-protein kinase erbB-4 (ERBB4, Homo sapiens, UniProt Q15303)", "read-out": "cell-free assay", "technique": "competition with immobilised ligand", "remaining binding [%]": 100}
{"target": "Epidermal growth factor receptor (EGFR, Homo sapiens, UniProt P00533, del747-752/P753S)", "read-out": "cell-free assay", "technique": "competition with immobilised ligand", "remaining binding [%]": 96}
{"target": "Receptor-type tyrosine-protein kinase FLT3 (FLT3, Homo sapiens, UniProt P36888, D835V)", "read-out": "cell-free assay", "technique": "competition with immobilised ligand", "remaining binding [%]": 100}
{"target": "Serine/threonine-protein kinase WNK4 (WNK4, Homo sapiens, UniProt Q96J92)", "read-out": "cell-free assay", "technique": "competition with immobilised ligand", "remaining binding [%]": 71}
{"target": "Inhibitor of nuclear factor kappa-B kinase subunit epsilon (IKBKE, Homo sapiens, UniProt Q14164)", "read-out": "cell-free assay", "technique": "competition with immobilised ligand", "remaining binding [%]": 65}
{"target": "Serine/threonine-protein kinase DCLK2 (DCLK2, Homo sapiens, UniProt Q8N568)", "read-out": "cell-free assay", "technique": "competition with immobilised ligand", "remaining binding [%]": 100}
{"data": "Series 4", "SMILES": "C=CC(=O)N1CCC[C@@H](n2nc(-c3ccc(Oc4ccccc4)cc3)c3c(N)ncnc32)C1", "action": "inhibitor", "tested at": "1 µM"}
{"target": "Phosphatidylinositol 4,5-bisphosphate 3-kinase catalytic subunit delta isoform (PIK3CD, Homo sapiens, UniProt O00329)", "read-out": "enzyme activity", "inhibition": "49%"}
{"target": "Activin receptor type-2B (ACVR2B, Homo sapiens, UniProt Q13705)", "read-out": "enzyme activity", "inhibition": "0%"}
{"target": "Casein kinase I isoform delta (CSNK1D, Homo sapiens, UniProt P48730)", "read-out": "enzyme activity", "inhibition": "5%"}
{"target": "Serine/threonine-protein kinase 38-like (STK38L, Homo sapiens, UniProt Q9Y2H1)", "read-out": "enzyme activity", "inhibition": "10%"}
{"target": "1-phosphatidylinositol 3-phosphate 5-kinase (PIKFYVE, Homo sapiens, UniProt Q9Y2I7)", "read-out": "enzyme activity", "inhibition": "0%"}
{"target": "Ribosomal protein S6 kinase alpha-1, kinase domain 2 (RPS6KA1, Homo sapiens, UniProt Q15418)", "inhibition": "15%"}
{"target": "cAMP-dependent protein kinase catalytic subunit PRKX (PRKX, Homo sapiens, UniProt P51817)", "read-out": "enzyme activity", "inhibition": "26%"}
{"target": "Cyclin-dependent kinase 17 (CDK17, Homo sapiens, UniProt Q00537)", "read-out": "enzyme activity", "inhibition": "3%"}
{"target": "Cyclin-dependent kinase 15 (CDK15, Homo sapiens, UniProt Q96Q40)", "read-out": "enzyme activity", "inhibition": "12%"}
